Published values gathered from unrelated publications.
A part holds a random share of what one study measured.

Sample 1 — method: protein-binding microarray; form: double-stranded DNA, one strand shown; sample: in vitro; tested at: 2200 nM top; notes: 60-bp whole probe; with: salmon DNA 0.4 mg/ml; relative to: random background probes; direction: higher = stronger binding; all sequences stand within: GCCTAGCAC … GTCTTGATTCGCTTGACGCTGCTG
Target: Interferon regulatory factor 7, full length, phosphomimetic (IRF7, Homo sapiens, UniProt Q92985, residues 1-503, S471D/S472D/S475D/S476D/S477D/S483D/S484D/S487D)
Residues (chain): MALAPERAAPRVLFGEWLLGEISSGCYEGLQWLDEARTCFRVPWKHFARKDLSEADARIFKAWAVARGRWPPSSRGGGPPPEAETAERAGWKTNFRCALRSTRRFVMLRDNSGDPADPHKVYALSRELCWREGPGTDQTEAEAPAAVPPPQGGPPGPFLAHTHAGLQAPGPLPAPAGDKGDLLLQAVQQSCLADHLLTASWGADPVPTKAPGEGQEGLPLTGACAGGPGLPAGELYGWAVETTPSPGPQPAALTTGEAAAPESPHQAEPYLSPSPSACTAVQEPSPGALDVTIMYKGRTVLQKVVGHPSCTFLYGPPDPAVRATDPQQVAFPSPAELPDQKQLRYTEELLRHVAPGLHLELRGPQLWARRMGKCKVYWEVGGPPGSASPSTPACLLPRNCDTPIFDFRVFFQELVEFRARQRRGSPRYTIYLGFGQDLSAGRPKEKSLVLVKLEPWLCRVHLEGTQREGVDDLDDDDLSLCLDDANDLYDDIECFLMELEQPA
| Sequence | fitted relative affinity [z-score] |
| --- | --- |
| GACGAACTGACTTTCGAGACGTGCTAG | 2.92 |
| GACGGTATCCCTATCCTGACGTGCTAG | 1.53 |
| GACGGTCTGGACACTGGGGACGTGCTA | -0.599 |
| AGATTTATCAAATGTGGGATTGTGCTA | -0.405 |
| AGTGGTATAGCACTAAGGGAGTGCTAG | -0.596 |
| TTAGAACTGAGTTTAGATTAGTGCTAG | -0.727 |
| TTAGATTTCAGACTGAATTAGTGCTAG | -0.18 |
| GACGGTATCGGTCTAGGGACGTGCTAG | 0.0193 |
| TCTACTTCTCTTTTGGCTTTGTGCTAG | 3.08 |
| TGGGCTACCTCTCTTAGAATGTGCTAG | -0.482 |
| GACGGTTTCGACTTTTGGGACGTGCTA | 5.36 |

Sample 2 — method: RNA Bind-n-Seq; form: RNA; sample: in vitro; tested at: 1 µM; notes: whole 134-nt RNA, ends assumed; with: 150 mM KCl; relative to: input library; direction: higher = stronger binding
Target: Ras GTPase-activating protein-binding protein 1, RRM domain (G3BP1, Homo sapiens, UniProt Q13283)
UniProt Q13283, sequence (whole entry, looked up): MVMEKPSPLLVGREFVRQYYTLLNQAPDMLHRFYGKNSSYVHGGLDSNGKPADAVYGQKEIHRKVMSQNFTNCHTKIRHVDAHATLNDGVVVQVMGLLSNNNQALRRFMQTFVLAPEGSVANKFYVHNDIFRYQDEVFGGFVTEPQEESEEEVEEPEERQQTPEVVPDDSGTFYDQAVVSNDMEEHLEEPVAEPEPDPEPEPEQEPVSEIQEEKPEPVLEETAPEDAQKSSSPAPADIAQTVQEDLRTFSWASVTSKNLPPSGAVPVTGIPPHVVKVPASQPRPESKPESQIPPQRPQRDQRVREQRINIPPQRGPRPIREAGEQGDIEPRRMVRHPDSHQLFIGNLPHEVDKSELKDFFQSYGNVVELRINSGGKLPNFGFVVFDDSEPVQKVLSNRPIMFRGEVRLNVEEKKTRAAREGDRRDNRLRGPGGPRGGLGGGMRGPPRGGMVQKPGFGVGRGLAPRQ
All sequences stand within: GGGAGUUCUACAGUCCGACGAUC … UGGAAUUCUCGGGUGUCAAGG
| Sequence | log2 enrichment |
| --- | --- |
| AGUCCUGUGCUACACAUCGUAUGUACCGAAUCGGGGUUUUUUUGGGGUGGGGUGGGGAAAGUAUUAUGUUACGCCGUUCGGAUCUGCACU | 0.528 |
| AGUCCUGUGCUACACAUCGUAUGUACCGAAUCGGGGAGGGGAAAAAAAGGGGAGGGGAAAGUAUUAUGUUACGCCGUUCGGAUCUGCACU | 1.06 |
| UGCAGCUGCUGGCCGCCUCCUAUGACCUGCACCGCUACUUCUACACGGGUGCCGAGAUCCUGGGCCUCAUCGACGAGAAGCACCGCGAGC | -0.27 |
| AAGUCCUGUGCUACACAUCGUAUGUACCGAAUCGGAAAAGGGGAAAAGGGGAAAAGGAAAGUAUUAUGUUACGCCGUUCGGAUCUGCACU | 0.0312 |
| GCAGGAAGUAAAAACAAAUGGAAAUGCUUCGGAUAGUGGCAGGGGUGGGGGUUGCUAAGGAAAGGGUGGUAUGGGAGUGGGUAAAGAGUU | 1.51 |
| CUGUGCUACACAUCGUAUGUACCGAAUCGGGGUUUUUUUGGUUUUUUUGGGGUUUUUUUGGAAAGUAUUAUGUUACGCCGUUCGGAUCUG | -0.129 |
| UCCUGUGCUACACAUCGUAUGUACCGAAUCAAACCCCCAAAUUUUUUUAAACCCCCAAAAAAGUAUUAUGUUACGCCGUUCGGAUCUGCA | -0.69 |

Mixed results
| Molecule | target or system | assay | system | setting | scale | quantity | result |
| --- | --- | --- | --- | --- | --- | --- | --- |
| MCM3 (Homo sapiens, UniProt P25205) | MCM7 (Homo sapiens, UniProt P33993) | cross-linking MS | cell fractions | with: DMTMM |  | cross-linked residues | K152 to D5 |
| PhoQ, residues 284 288 289 292 302 303 TVTVVA | PhoP, residues 12 14 15 18 19 LHHSG (Escherichia coli, UniProt P23836) | Sort-seq, measured: YFP reporter | E. coli | PhoQ-PhoP variant library, with: 10 µM Mg2+ | relative to: high Mg2+ state, higher = stronger signaling | fold induction | 12.4 |
| KTN1 (Homo sapiens, UniProt Q86UP2) | PLEKHG1 (Homo sapiens, UniProt Q9ULL1) | cross-linking MS | cell fractions | with: DSSO |  | cross-linked residues | K477 to S105 |
| CCT8 (Homo sapiens, UniProt P50990) | CCT7 (Homo sapiens, UniProt Q99832) | cross-linking MS | cell fractions | with: DSSO |  | cross-linked residues | K62 to K77 |

Some of these lines once more (sample 1):
| Sequence | fitted relative affinity [z-score] |
| --- | --- |
| GACGGTATCGGTCTAGGGACGTGCTAG | 0.0193 |
| TCTACTTCTCTTTTGGCTTTGTGCTAG | 3.08 |
| TGGGCTACCTCTCTTAGAATGTGCTAG | -0.482 |
